Experimental data of several laboratories.
Each numbered part is a random draw from the data of one study; scales do not carry over between parts.

Block 1 — method: protein binding microarray; molecule type: double-stranded DNA, one strand shown; medium: in vitro; tested at: not given; reference: not given; reading: higher = stronger binding
Target: Histone acetyltransferase KAT6A, both winged helices, GST fusion (KAT6A, Homo sapiens, UniProt Q92794, residues 1-181)
Setting: 8-mer, flanks averaged, mean of 2 arrays, mostly near background
Residues (chain): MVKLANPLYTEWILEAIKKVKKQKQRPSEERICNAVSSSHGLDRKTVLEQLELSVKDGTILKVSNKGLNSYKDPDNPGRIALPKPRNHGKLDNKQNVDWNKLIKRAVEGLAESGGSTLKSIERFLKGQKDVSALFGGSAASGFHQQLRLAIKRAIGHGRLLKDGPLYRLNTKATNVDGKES
Oligonucleotide	E-score
AAGACGGG	0.168
AGATGGAC	0.0262
GCAGACGC	0.187
CATCCACG	0.0103
ATGTGCTG	-0.0985
ACGCCTGA	-0.0718
CGTCTCAC	0.0295
ATACGGCA	0.245
CAAAGAGA	-0.0306
AGCATCGA	-0.123
ATCTCCGC	0.0757
CATCATTC	0.0213
GACGCACC	0.138
CTCCATTA	-0.184
CCAAAGGC	-0.0725
CGAAGGAA	0.0557
AACAGCTA	-0.111
TGAACCAA	-0.229
CGAATAGC	-0.0966
TCAACGCA	0.189
TACGACGA	-0.262
GATACATA	-0.0209
CTCTGAGC	-0.118
CAAAAAGG	-0.186
CACCCTGG	-0.284

Block 2 — method: RNA Bind-n-Seq; molecule type: RNA; medium: in vitro; tested at: not given; reference: input RNA pool; reading: higher = stronger binding
Target: RING finger protein unkempt homolog, zinc fingers 1-6, GST-SBP tag (UNK, Homo sapiens, UniProt Q9C0B0, residues 30-357)
Setting: RNA with constant flanks, human and mouse sites, ends assumed
All sequences stand within: GGGAGUUCUACAGUCCGACGAUC … CAACAGAGGAUUGAGCAUCA
Construct (chain): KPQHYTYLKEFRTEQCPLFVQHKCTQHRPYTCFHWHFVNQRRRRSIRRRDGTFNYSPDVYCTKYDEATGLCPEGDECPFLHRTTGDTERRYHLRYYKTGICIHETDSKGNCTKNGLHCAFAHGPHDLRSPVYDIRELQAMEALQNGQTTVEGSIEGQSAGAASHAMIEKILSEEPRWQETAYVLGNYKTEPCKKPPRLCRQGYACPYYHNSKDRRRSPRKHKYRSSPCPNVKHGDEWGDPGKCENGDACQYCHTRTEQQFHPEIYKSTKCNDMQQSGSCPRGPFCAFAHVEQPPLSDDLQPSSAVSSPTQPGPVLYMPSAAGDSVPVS
Oligonucleotide	bound/input enrichment
AUCAAAUACUUUGGGGACAUCAUUAGUGUGGGACAGAGACUGUUGCAAGGAGCUCGGAUCUUAGGGAUUCCAGUUAUCAUAACGGAACAAUACCCCAAAGGACUUGGCAGCACCGUUCAA	0.212 ratio
UCUCCCCCACCUCCUCCUCCUCCAGAAGAUUACGAAGAGGAGGAAGCUGCUGUGGUUGAGUAUAGUGAUCCUUAUGCUGAAGAGGACCCACCGUGGGCUCCACGUUCUUACUUGGAAAAG	0.0945 ratio
AAAUCCAAAGCUCGUCGAUGCCGAGUACACCAAAAACCAGGCCUGGAAGUCUAUGAAAGAUACUCUGGGAAAGCCAGCCGCUAAGGAUGUACACCUCAUAGAUCACUGCAAAUACAGAUA	0.134 ratio
AAGUACUAAUAUUCCAGAAAUUUUUGAAAGCAGUAACCUUAAUUUCCUAUGUAUUUCAUUCCACUUUUGCAUAUAGGUCAAAUAGCAAUGUGUAUGCACAUUCUCUUUAGUUAAGGCACC	6.33 ratio
CUUUGAAAGAUGAACAGUGUAGCCUGUCUGAAACUGUAGAGCCUUCAGGUGUCUUUAUUUAAUAGGUUGGGAGUGUGCAAGGGCUUCCUUAGCAGGGACAGAAGGCAAUCCUUUCAUGGU	0.887 ratio
GAAAGGGACGGUGGGACCAGUUACUCUCCACAAGAAAACUCACACAACCACAGUGCACUUCAUAGUUCAAAUUCACAUUCUUCUAAUCCAAGCAAUAAUCCAAGCAAAACUUCAGAUGCA	1.54 ratio
CCUCCCCAUUACCCCUAAAGUAGAACAUUUUUUAAAUUGUGUUGCCACCACUUCUAAAAAUUUAGCAAUAUUAGAAUAGGAUACUAGUGAAGUAAGAAAUUUUGCUUGUUGUUUUGCAAA	302 ratio
CUUAAAGAGCUUGAAGCUAAAGCCUAUAAACAGAUUGAUGCACGUGGUGGGAACCCUGAGCUAGUAGCCUUAGUAAAACACUUAAGUAAGAUGUUCAAAGAAGAAAAUGAAUAAUGUUAA	21 ratio

Block 3 — method: RNA Bind-n-Seq; molecule type: RNA; medium: in vitro; tested at: 1 µM; setting: whole 134-nt RNA, ends assumed; with: 150 mM KCl; reference: input library; reading: higher = stronger binding
Target: Ras GTPase-activating protein-binding protein 1, C-terminal RGG region (G3BP1, Homo sapiens, UniProt Q13283)
UniProt Q13283, sequence (whole entry, looked up): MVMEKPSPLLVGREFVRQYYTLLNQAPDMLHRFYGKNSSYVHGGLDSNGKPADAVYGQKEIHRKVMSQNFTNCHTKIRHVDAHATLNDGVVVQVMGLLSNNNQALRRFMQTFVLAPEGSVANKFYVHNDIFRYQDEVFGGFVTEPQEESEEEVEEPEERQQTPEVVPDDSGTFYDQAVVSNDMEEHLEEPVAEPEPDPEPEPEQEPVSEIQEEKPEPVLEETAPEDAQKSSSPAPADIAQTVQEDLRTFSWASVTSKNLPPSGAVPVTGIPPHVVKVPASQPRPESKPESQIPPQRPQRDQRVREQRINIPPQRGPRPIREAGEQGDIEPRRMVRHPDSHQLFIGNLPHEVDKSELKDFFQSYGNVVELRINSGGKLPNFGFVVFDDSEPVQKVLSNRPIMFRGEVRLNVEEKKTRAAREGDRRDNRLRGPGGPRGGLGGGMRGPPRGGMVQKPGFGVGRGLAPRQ
All sequences stand within: GGGAGUUCUACAGUCCGACGAUC … UGGAAUUCUCGGGUGUCAAGG
Oligonucleotide	log2 enrichment
CAAGUCCUGUGCUACACAUCGUAUGUACCGAAUCGGAAAGGAAAGGUUUUUUUGGAAAGUAUUAUGUUACGCCGUUCGGAUCUGCACUUC	-1.94
GCAGGAAGUAAAAACAAAUGGAAAUGCUUCGGAUAGUGGCAGGGGUGAAAGUUGCUAAGGAAAGGGUGGGAUGGGAGUGGGUAAAGAGUU	2.03
CUGUGCUACACAUCGUAUGUACCGAAUCGGGGAAAAAGGGGAAAAAGGGGAAAAAAAGGGGAAAGUAUUAUGUUACGCCGUUCGGAUCUG	-0.144
UGGCCCUGGUGGCAUGCGGGGAGGAAGAGGUGGCCUCAUGGAUCGUGGUGGUCCCGGUGUAAUGUUCAGAGGUGGCCGUGGUGGAGACAG	1.6
ACCAUGCAGGUGGGCAUCUUUGGGAAGUGGGGCAAGGGGGGGAUAGGGAGGGGGGUAACACUUUGGGAACAGGUGGUCCUAGGUCGUUUC	1.89
AGUCCUGUGCUACACAUCGUAUGUACCGAAUCGGGGAGGGGUGGGGUUUUUUUGGGGAAAGUAUUAUGUUACGCCGUUCGGAUCUGCACU	1.78
CAAGUCCUGUGCUACACAUCGUAUGUACCGAAUCGGAAAAAGGUUUUUGGUUUGGAAAGUAUUAUGUUACGCCGUUCGGAUCUGCACUUC	-1.94
GCAGGAAGUAAUAACAAAUGGAAAUGCUUCGGAUAGUGGCAGGGGUGGGGGUUGCUAAGGAAAGGGUGGGAUGGGAGUGGGUAAAGAGUU	1.24
CCUCAAGUCCUGUGCUACACAUCGUAUGUACCGAAUCGGGAGGGGAGGAGGGAAAGUAUUAUGUUACGCCGUUCGGAUCUGCACUUCCAG	0.229

Block 4 — method: protein-binding microarray; molecule type: double-stranded DNA, one strand shown; medium: in vitro; tested at: 2200 nM top; setting: 60-bp whole probe; with: salmon DNA 0.4 mg/ml; reference: random background probes; reading: higher = stronger binding; all sequences stand within: GCCTAGCAC … GTCTTGATTCGCTTGACGCTGCTG
Target: Interferon regulatory factor 7, full length, phosphomimetic (IRF7, Homo sapiens, UniProt Q92985, residues 1-503, S471D/S472D/S475D/S476D/S477D/S483D/S484D/S487D)
UniProt Q92985, sequence (whole entry, unmodified, looked up): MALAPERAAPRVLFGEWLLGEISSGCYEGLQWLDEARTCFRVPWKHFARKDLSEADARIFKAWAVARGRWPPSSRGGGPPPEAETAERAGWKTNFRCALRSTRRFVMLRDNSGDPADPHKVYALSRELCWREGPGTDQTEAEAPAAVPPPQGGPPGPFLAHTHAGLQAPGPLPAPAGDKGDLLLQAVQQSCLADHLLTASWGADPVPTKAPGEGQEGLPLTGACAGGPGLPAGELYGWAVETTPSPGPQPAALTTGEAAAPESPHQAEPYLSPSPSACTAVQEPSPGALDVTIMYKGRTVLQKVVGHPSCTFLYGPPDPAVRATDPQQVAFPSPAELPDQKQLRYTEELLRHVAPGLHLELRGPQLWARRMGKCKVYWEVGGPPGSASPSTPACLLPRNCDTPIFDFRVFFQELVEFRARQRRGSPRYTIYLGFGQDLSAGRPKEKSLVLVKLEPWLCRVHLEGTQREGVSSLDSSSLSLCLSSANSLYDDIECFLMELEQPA
Oligonucleotide	fitted relative affinity [z-score]
TTAGAACTGGGGGCTGGATTAGTGCTA	0.479
TTAGATCTCAGATTGGATTAGTGCTAG	-0.366
GACGATTTCAGTTTCGACACGTGCTAG	4.89
TGTCTTTTCACTTTCTTTAAGTGCTAG	4.03
TCAAGTTTTCATTTTCTACTGTGCTAG	4.59
TCCAACCTGCTGAATCAAAAGTGCTAG	0.707
GACGGACTCCTACTGCTGACGTGCTAG	0.439
TTAGGTATCGGACTGGGTTGGTGCTAG	-0.122
GAGGGACTGGGGACTGGGGACGTGCTA	-0.711
TATGTTCACTATTTAAGAACGTGCTAG	0.864
TCAATTTTGTCCTCCCCTACTGTGCTA	1.32
TTAGATATCAGTTCCGATTAGTGCTAG	0.958
GATGGACTGCTTTTCCTGACGTGCTAG	0.709
GACGGACTGGGTTTTGGGACGTGCTAG	-0.496
GACGGTTCCCGTTTCCTGACGTGCTAG	2.76
TCATCTTCTCCTCTAGGACTGTGCTAG	1.45
TTAGGACTGCGTCTCGGTTAGTGCTAG	-0.0353
TTAGGGATCGGGTATCGGTTAGTGCTA	-0.278
GACGAACTGGGGACTGGATACGTGCTA	0.0777
